{"data": "Measurements collected from several papers", "B1": "HY5 S36A (Arabidopsis thaliana, UniProt O24646); sequence looked up; chain MQEQATSSLAASSLPSSSERSSSSAPHLEIKEGIEADEEIRRVPEFGGEAVGKETSGRESGSATGQERTQATVGESQRKRGRTPAEKENKRLKRLLRNRVSAQQARERKKAYLSELENRVKDLENKNSELEERLSTLQNENQMLRHILKNTTGNKRGGGGGSNADASL", "B2": "POL30 1-258 K164R (Saccharomyces cerevisiae, UniProt P15873); chain MLEAKFEEASLFKRIIDGFKDCVQLVNFQCKEDGIIAQAVDDSRVLLVSLEIGVEAFQEYRCDHPVTLGMDLTSLSKILRCGNNTDTLTLIADNTPDSIILLFEDTKKDRIAEYSLKLMDIDADFLKIEELQYDSTLSLPSSEFSKIVRDLSQLSDSINIMITRETIKFVADGDIGSGSVIIKPFVDMEHPETSIKLEMDQPVDLTFGAKYLLDIIKGSSLSDRVGIRLSSEAPALFQFDLKSGFLQFFLAPKFNDEE", "B3": "EFR3A 721-791 F728A (Homo sapiens, UniProt Q14156); chain SNTEEITAEALKKAIDTSGMEEQEKEKRRLVIEKFQKAPFEEIAAQCESKANLLHDRLAQILELTIRPPPS", "B4": "PTK2 102-252 (Homo sapiens, UniProt Q05397); sequence looked up; chain MGVSSVREKYELAHPPEEWKYELRIRYLPKGFLNQFTEDKPTLNFFYQQVKSDYMLEIADQVDQEIALKLGCLEIRRSYWEMRGNALEKKSNYEVLEKDVGLKRFFPKSLLDSVKAKTLRKLIQQTFRQFANLNREESILKFFEILSPVYR", "B5": "RRP41 1-246 (Saccharomyces cerevisiae, UniProt P46948); chain MSRLEIYSPEGLRLDGRRWNELRRFESSINTHPHAADGSSYMEQGNNKIITLVKGPKEPRLKSQMDTSKALLNVSVNITKFSKFERSKSSHKNERRVLEIQTSLVRMFEKNVMLNIYPRTVIDIEIHVLEQDGGIMGSLINGITLALIDAGISMFDYISGISVGLYDTTPLLDTNSLEENAMSTVTLGVVGKSEKLSLLLVEDKIPLDRLENVLAIGIAGAHRVRDLMDEELRKHAQKRVSNASAR", "B6": "Pri1 (Saccharomyces cerevisiae, UniProt P10363); sequence looked up; chain MTNSVKTNGPSSSDMEYYYKSLYPFKHIFNWLNHSPKPSRDMINREFAMAFRSGAYKRYNSFNSVQDFKAQIEKANPDRFEIGAIYNKPPRERDTLLKSELKALEKELVFDIDMDDYDAFRTCCSGAQVCSKCWKFISLAMKITNTALREDFGYKDFIWVFSGRRGAHCWVSDKRARALTDVQRRNVLDYVNVIRDRNTDKRLALKRPYHPHLARSLEQLKPFFVSIMLEEQNPWEDDQHAIQTLLPALYDKQLIDSLKKYWLDNPRRSSKEKWNDIDQIATSLFKGPKQDSHIIKLRECKEDLVLMTLYPKLDVEVTKQTIHLLKAPFCIHPATGNVCVPIDESFAPEKAPKLIDLQTEMEKNNDVSLTALQPFINQFQAYVSSLLKNELGSVKREREDDDEPASLDF", "B7": "KAT7 474-611 (Homo sapiens, UniProt O95251); sequence looked up; chain CILTMPQYMRQGYGKMLIDFSYLLSKVEEKVGSPERPLSDLGLISYRSYWKEVLLRYLHNFQGKEISIKEISQETAVNPVDIVSTLQALQMLKYWKGKHLVLKRQDLIDEWIAKEAKRSNSNKTMDPSCLKWTPPKGT", "B8": "AIR2 1-223 C84S/C104S (Saccharomyces cerevisiae, UniProt Q12476); sequence looked up; chain MEKNTAPFVVDTAPTTPPDKLVAPSIEEVNSNPNELRALRGQGRYFGVSDDDKDAIKEAAPKCNNCSQRGHLKKDCPHIICSYSGATDDHYSRHCPKAIQCSKSDEVGHYRSQCPHKWKKVQCTLCKSKKHSKERCPSIWRAYILVDDNEKAKPKVLPFHTIYCYNCGGKGHFGDDCKEKRSSRVPNEDGSAFTGSNLSVELKQEYYRHMNRNSDENEDYQFS", "B9": "CCDC32 L78A/L81A/K83A/K84A (Mus musculus, UniProt Q8BS39); chain MKMFESLDSSATKSGRDLWAEICSCLPSPAQEDVSDNAFSDSFMDSHPAGESHTAAADSAVQPAGKPWAPLHDSEVYAASAEAALRRIKGLNEEVTSKDMLRTLAQAKKECWDRFLQEKLASEFFVDGLDSDERTLEHFKRWLQPDKVAISTEEVQFLIPPESQAEKPEAGDKPAAAEQ", "B10": "EIF5B 1076-1220 (Homo sapiens, UniProt O60841); sequence looked up; chain YKKQKQEEFKHIAVFPCKIKILPQYIFNSRDPIVMGVTVEAGQVKQGTPMCVPSKNFVDIGIVTSIEINHKQVDVAKKGQEVCVKIEPIPGESPKMFGRHFEATDILVSKISRQSIDALKDWFRDEMQKSDWQLIVELKKVFEII", "B11": "lpxC 1-305 (Escherichia coli, UniProt P0A725); chain MIKQRTLKRIVQATGVGLHTGKKVTLTLRPAPANTGVIYRRTDLNPPVDFPADAKSVRDTMLCTCLVNEHDVRISTVEHLNAALAGLGIDNIVIEVNAPEIPIMDGSAAPFVYLLLDAGIDELNCAKKFVRIKETVRVEDGDKWAEFKPYNGFSLDFTIDFNHPAIDSSNQRYAMNFSADAFMRQISRARTFGFMRDIEYLQSRGLCLGGSFDCAIVVDDYRVLNEDGLRFEDEFVRHKMLDAIGDLFMCGHNIIGAFTAYKSGHALNNKLLQAVLAKQEAWEYVTFQDDAELPLAFKAPSAVLA", "B12": "rcf2 (Schizosaccharomyces pombe, UniProt Q9P3B2); sequence looked up; chain MKLSTPEEVKAFNRNTYSALFKGALVGSSLGIAGWLIGNRYSAGFRRLPFSLKSWLVIGSGSGASIIFADKAGLKFEAERYGKFDQIDYSTKGLPWNQRALYYFNEHKWPIILGTWASTMGLSLYAASRNRYDTAPQKLIQARMYAQGVTVVVLLGSVYLSTLANRLEPLEREVLVTDPSNPTKLVAFKQRKERYPGELQWEVLVSQDEERLRKLNLPLREPHGSTGPMSTPTPALNSSRSA", "B13": "POMP (Homo sapiens, UniProt Q9Y244); chain MNARGLGSELKDSIPVTELSASGPFESHDLLRKGFSCVKNELLPSHPLELSEKNFQLNQDKMNFSTLRNIQGLFAPLKLQMEFKAVQQVQRLPFLSSSNLSLDVLRGNDETIGFEDILNDPSQSEVMGEPHLMVEYKLGLL", "note": "Protocols differ between the studies behind these lines.", "chain of UniProt Q92769 (whole entry, looked up)": "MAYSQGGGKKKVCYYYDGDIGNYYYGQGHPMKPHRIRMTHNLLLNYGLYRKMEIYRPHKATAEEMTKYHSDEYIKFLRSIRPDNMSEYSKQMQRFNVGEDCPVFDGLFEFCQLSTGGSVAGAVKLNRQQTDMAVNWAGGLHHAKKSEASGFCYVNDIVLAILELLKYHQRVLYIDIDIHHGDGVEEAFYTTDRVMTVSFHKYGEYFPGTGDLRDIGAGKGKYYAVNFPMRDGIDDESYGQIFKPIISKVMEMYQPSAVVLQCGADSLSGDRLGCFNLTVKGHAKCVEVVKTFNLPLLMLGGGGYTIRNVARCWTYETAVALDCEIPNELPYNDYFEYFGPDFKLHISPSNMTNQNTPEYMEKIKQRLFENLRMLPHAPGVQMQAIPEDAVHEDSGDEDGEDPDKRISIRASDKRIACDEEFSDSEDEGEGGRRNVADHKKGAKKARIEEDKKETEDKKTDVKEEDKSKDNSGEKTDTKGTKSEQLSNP", "chain of UniProt P53632 (whole entry, unmodified, looked up)": "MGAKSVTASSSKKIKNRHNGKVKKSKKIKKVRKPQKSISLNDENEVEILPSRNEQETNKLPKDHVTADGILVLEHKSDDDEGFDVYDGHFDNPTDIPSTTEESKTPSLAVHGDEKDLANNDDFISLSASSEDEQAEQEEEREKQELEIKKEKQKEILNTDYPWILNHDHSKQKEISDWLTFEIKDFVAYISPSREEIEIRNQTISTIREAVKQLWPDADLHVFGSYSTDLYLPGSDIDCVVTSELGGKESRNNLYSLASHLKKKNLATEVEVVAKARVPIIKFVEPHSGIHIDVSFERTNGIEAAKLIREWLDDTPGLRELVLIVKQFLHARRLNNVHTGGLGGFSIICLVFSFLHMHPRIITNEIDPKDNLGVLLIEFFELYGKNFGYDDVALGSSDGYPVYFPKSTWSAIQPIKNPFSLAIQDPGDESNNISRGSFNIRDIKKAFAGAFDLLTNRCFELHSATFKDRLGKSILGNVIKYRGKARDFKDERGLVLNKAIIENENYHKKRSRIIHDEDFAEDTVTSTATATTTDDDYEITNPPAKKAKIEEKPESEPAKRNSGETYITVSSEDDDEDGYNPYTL", "chain of UniProt P14575 (whole entry, looked up)": "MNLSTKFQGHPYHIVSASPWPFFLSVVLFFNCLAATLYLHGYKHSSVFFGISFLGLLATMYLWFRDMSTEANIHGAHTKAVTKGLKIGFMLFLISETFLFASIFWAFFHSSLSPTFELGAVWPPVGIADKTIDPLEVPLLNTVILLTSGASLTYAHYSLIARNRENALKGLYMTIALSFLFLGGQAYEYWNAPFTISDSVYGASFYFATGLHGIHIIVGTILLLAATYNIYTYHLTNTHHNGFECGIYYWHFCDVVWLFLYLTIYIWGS", "chain of UniProt P38792 (whole entry, looked up)": "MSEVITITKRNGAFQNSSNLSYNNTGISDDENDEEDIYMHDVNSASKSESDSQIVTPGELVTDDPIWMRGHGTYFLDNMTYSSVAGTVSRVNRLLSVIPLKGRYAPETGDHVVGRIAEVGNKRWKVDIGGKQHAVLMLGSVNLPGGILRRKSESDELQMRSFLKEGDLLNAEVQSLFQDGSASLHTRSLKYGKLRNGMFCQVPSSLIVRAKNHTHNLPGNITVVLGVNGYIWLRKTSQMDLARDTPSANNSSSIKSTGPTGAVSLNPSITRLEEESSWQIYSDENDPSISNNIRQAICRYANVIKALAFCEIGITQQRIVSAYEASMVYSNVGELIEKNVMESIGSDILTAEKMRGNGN", "chain of UniProt Q8L6Y1 (whole entry, looked up)": "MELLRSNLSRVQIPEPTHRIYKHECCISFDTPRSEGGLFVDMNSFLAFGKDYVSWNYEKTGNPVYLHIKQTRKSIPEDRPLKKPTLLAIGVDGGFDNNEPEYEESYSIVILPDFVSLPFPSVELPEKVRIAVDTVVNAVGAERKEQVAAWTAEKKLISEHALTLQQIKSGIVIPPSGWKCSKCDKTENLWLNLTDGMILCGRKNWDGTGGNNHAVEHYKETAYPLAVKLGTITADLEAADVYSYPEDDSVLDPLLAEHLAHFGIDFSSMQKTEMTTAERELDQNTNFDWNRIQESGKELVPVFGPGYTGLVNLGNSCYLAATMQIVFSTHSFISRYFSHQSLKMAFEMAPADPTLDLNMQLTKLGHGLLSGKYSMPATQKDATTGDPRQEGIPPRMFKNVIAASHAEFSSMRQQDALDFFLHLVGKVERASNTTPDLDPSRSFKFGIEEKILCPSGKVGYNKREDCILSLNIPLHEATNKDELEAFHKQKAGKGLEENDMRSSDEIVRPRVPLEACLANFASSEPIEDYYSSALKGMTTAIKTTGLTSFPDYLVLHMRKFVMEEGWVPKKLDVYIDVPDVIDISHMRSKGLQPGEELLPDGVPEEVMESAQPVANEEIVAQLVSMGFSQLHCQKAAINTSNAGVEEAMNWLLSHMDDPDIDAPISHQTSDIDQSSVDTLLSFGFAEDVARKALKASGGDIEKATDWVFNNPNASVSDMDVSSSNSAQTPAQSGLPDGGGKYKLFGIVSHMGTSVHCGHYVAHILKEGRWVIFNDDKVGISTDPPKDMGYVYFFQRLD", "chain of UniProt P43605 (whole entry, looked up)": "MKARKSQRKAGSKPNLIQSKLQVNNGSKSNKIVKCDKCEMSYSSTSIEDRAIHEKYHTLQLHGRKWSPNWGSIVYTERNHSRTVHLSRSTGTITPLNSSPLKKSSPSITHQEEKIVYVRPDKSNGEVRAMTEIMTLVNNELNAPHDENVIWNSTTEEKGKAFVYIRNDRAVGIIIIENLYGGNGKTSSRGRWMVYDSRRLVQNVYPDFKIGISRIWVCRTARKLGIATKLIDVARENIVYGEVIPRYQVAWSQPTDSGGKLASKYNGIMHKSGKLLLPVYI", "chain of UniProt P53011 (whole entry, looked up)": "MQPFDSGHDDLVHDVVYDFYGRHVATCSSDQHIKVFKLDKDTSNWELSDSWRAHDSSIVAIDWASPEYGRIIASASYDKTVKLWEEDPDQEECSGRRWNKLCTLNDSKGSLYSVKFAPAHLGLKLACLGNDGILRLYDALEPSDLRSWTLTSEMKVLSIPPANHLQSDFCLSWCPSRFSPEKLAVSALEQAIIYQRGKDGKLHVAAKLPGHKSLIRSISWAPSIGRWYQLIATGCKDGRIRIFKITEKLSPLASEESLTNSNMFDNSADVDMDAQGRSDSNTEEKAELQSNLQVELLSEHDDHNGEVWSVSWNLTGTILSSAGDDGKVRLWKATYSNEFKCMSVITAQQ", "chain of UniProt P49687 (whole entry, looked up)": "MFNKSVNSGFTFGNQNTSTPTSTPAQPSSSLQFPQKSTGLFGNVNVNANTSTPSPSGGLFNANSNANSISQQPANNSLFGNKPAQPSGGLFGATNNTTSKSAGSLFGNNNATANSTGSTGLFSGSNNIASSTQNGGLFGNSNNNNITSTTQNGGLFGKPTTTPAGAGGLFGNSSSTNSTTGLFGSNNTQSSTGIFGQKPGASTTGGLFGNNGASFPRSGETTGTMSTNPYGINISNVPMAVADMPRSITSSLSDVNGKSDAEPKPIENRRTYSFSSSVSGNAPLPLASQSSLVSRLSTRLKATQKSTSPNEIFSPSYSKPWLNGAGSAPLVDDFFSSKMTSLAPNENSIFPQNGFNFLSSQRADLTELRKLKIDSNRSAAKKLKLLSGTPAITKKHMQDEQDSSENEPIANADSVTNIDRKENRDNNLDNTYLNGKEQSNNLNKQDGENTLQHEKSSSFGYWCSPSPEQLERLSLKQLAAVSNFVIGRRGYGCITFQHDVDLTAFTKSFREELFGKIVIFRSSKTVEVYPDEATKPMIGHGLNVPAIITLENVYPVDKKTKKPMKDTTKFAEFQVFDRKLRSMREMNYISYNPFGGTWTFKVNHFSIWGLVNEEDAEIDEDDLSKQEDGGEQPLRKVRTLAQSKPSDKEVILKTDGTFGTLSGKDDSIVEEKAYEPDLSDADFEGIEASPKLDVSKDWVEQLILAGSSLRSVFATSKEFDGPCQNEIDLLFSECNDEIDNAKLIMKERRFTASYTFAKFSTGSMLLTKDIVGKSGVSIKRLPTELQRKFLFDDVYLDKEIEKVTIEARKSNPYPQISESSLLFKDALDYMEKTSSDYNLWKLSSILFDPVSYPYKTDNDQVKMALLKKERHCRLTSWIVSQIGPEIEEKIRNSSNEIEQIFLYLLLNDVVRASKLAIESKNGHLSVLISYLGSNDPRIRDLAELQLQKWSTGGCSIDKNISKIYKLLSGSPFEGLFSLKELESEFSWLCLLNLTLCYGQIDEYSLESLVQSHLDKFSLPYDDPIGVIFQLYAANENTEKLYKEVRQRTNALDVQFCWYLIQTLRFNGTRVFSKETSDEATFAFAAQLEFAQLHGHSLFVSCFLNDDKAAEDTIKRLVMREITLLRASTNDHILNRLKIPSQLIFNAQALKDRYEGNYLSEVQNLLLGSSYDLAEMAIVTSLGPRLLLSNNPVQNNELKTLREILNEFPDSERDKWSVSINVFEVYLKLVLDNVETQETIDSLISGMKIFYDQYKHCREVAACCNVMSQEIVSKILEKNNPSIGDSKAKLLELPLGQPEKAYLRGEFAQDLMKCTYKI", "chain of UniProt P55010 (whole entry, looked up)": "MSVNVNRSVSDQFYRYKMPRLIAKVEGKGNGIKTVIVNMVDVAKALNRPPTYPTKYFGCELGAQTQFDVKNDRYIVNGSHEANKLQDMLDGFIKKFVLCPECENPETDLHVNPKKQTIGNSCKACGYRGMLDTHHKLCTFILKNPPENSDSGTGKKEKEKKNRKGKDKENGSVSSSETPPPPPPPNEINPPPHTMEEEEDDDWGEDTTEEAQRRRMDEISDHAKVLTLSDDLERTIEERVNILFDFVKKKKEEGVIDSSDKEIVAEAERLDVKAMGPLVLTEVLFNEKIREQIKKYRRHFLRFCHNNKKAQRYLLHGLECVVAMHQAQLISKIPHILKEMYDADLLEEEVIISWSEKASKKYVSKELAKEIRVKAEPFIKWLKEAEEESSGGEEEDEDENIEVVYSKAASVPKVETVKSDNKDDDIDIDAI"}
{"Molecule": "EPEVWVVEAEDEPLLA (Lrp10 698-713 (Mus musculus, UniProt Q7TQH7))", "tested on": "AP2A2/AP2B1/AP2M1/AP2S1 core, lacking appendage domains (Mus musculus)", "test": "pull-down", "test system": "peptide", "endpoint": "binding", "value": "binds"}
{"Molecule": "TARBP2 (Homo sapiens, UniProt Q15633)", "tested on": "DICER1 (Homo sapiens, UniProt Q9UPY3)", "test": "SEC", "endpoint": "binding", "value": "binds"}
{"Molecule": "SNAPC1 (Homo sapiens, UniProt Q16533)", "tested on": "SNAPC4 (Homo sapiens, UniProt Q5SXM2)", "test": "cross-linking", "endpoint": "binding", "value": "binds"}
{"Molecule": "B1 (HY5 S36A)", "tested on": "UBP14 (Arabidopsis thaliana, UniProt Q8L6Y1)", "test": "pull-down", "endpoint": "binding", "value": "binds"}
{"Molecule": "B2 (POL30 1-258 K164R)", "tested on": "ECO1 (Saccharomyces cerevisiae, UniProt P43605)", "test": "pull-down", "endpoint": "binding", "value": "binds"}
{"Molecule": "GSGAGHETIV", "tested on": "human MAGI1-3/6 PDZ construct (MBP fusion)", "test": "automated holdup", "test system": "peptide, crude extract", "conditions": "concentration not given, corrected by standard peak, unit not given", "how to read": "baseline: biotin control resin, higher = stronger binding", "endpoint": "binding intensity", "value": 0.213}
{"Molecule": "B3 (EFR3A 721-791 F728A)", "tested on": "TTC7B/FAM126A FAM126A 1-308 (Homo sapiens)", "test": "BLI", "endpoint": "binding", "value": "binds"}
{"Molecule": "VTI1 (Saccharomyces cerevisiae, UniProt Q04338)", "tested on": "TLG1 (Saccharomyces cerevisiae, UniProt Q03322)", "test": "pull-down", "endpoint": "binding", "value": "binds"}
{"Molecule": "DGPGGGPGGSHMGGNYGDDRRGGRGGYDRGGYRGRGGDRGGFRGGRGGGDRGGFG (FUS 453-507 (Homo sapiens, UniProt P35637); sequence looked up)", "tested on": "NUP62 (Homo sapiens, UniProt P37198)", "test": "co-IP", "endpoint": "binding", "value": "binds"}
{"Molecule": "SEH1 (Saccharomyces cerevisiae, UniProt P53011)", "tested on": "NUP145 C-terminal subunit (Saccharomyces cerevisiae, UniProt P49687)", "test": "cross-linking", "endpoint": "binding", "value": "binds"}
{"Molecule": "B4 (PTK2 102-252)", "tested on": "PRKCQ (Homo sapiens, UniProt Q04759)", "test": "pull-down", "endpoint": "binding", "value": "binds"}
{"Molecule": "B5 (RRP41 1-246)", "tested on": "RRP4 (Saccharomyces cerevisiae, UniProt P38792)", "test": "cryo-EM", "endpoint": "binding", "value": "binds"}
{"Molecule": "B6 (Pri1)", "tested on": "POL1 (Saccharomyces cerevisiae, UniProt P13382)", "test": "mass photometry", "endpoint": "binding", "value": "binds"}
{"Molecule": "DVLLLDVTPLS (HSPA9 interdomain linker, 434-444 (Homo sapiens))", "tested on": "HSPA9 52-431 (Homo sapiens, UniProt P38646)", "test": "BLI", "test system": "peptide", "conditions": "added: ADP", "endpoint": "binding", "value": "binds"}
{"Molecule": "B7 (KAT7 474-611)", "tested on": "HDAC2 (Homo sapiens, UniProt Q92769)", "test": "pull-down", "endpoint": "binding", "value": "binds"}
{"Molecule": "B8 (AIR2 1-223 C84S/C104S)", "tested on": "PAP2 D236A/D238A (Saccharomyces cerevisiae, UniProt P53632)", "test": "HDX-MS", "endpoint": "binding", "value": "binds"}
{"Molecule": "B9 (CCDC32 L78A/L81A/K83A/K84A)", "tested on": "AP-2 α/σ2 (Mus musculus)", "test": "pull-down", "endpoint": "binding", "value": "binds"}
{"Molecule": "B10 (EIF5B 1076-1220)", "tested on": "EIF5 232-431 (Homo sapiens, UniProt P55010)", "test": "NMR titration", "endpoint": "binding", "value": "binds"}
{"Molecule": "LGGLTNGSGRYISAAPGAEAKYRSASS (PUM1 774-800 (Homo sapiens, UniProt Q14671); sequence looked up)", "tested on": "CNOT1/CNOT2/CNOT3 NOT module 1833-2361", "test": "pull-down", "endpoint": "binding", "value": "binds"}
{"Molecule": "B11 (lpxC 1-305)", "tested on": "lapB 21-389 H181R (Escherichia coli, UniProt P0AB58)", "test": "pull-down", "endpoint": "binding", "value": "binds"}
{"Molecule": "B12 (rcf2)", "tested on": "cox3 (Schizosaccharomyces pombe, UniProt P14575)", "test": "cryo-EM", "endpoint": "binding", "value": "binds"}
{"Molecule": "RVB1 (Saccharomyces cerevisiae, UniProt Q03940)", "tested on": "VPS72 (Saccharomyces cerevisiae, UniProt Q03388)", "test": "cryo-EM", "endpoint": "binding", "value": "binds"}
{"Molecule": "B13 (POMP)", "tested on": "PSMB3 (Homo sapiens, UniProt P49720)", "test": "cryo-EM", "endpoint": "binding", "value": "binds"}
{"Molecule": "GSGAGSETSV", "tested on": "human MAGI1-3/6 PDZ construct (MBP fusion)", "test": "surface plasmon resonance", "test system": "peptide", "conditions": "concentration not given", "how to read": "higher = stronger binding", "endpoint": "normalised SPR binding response", "value": "0 normalised RU"}
{"note": "Excerpt of the above:"}
{"Molecule": "EPEVWVVEAEDEPLLA (Lrp10 698-713 (Mus musculus, UniProt Q7TQH7))", "tested on": "AP2A2/AP2B1/AP2M1/AP2S1 core, lacking appendage domains (Mus musculus)", "test": "pull-down", "test system": "peptide", "endpoint": "binding", "value": "binds"}
{"Molecule": "B11 (lpxC 1-305)", "tested on": "lapB 21-389 H181R (Escherichia coli, UniProt P0AB58)", "test": "pull-down", "endpoint": "binding", "value": "binds"}
{"Molecule": "B7 (KAT7 474-611)", "tested on": "HDAC2 (Homo sapiens, UniProt Q92769)", "test": "pull-down", "endpoint": "binding", "value": "binds"}
